Results pooled from the literature.
Numbers after ± are the reported error.
CHRM2: Muscarinic acetylcholine receptor M2 (CHRM2, Homo sapiens, UniProt P08172)
Sequence of UniProt P08172 (whole entry, looked up): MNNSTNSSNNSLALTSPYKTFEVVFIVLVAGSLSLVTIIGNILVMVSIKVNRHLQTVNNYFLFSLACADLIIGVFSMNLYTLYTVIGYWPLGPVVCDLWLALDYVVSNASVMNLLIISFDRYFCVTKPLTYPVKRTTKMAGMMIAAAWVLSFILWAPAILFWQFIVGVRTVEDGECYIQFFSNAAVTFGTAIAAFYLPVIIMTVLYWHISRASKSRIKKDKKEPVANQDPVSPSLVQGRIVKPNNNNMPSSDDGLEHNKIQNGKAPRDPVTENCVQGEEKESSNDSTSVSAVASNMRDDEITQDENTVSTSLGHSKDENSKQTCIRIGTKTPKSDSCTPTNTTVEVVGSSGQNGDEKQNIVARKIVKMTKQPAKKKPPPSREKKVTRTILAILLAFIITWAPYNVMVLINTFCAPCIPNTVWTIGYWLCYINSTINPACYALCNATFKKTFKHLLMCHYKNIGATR
KDM1A: Lysine-specific histone demethylase 1A (KDM1A, Homo sapiens, UniProt O60341)
HTR6: 5-hydroxytryptamine receptor 6 (HTR6, Homo sapiens, UniProt P50406)
Sequence of UniProt P50406 (whole entry, looked up): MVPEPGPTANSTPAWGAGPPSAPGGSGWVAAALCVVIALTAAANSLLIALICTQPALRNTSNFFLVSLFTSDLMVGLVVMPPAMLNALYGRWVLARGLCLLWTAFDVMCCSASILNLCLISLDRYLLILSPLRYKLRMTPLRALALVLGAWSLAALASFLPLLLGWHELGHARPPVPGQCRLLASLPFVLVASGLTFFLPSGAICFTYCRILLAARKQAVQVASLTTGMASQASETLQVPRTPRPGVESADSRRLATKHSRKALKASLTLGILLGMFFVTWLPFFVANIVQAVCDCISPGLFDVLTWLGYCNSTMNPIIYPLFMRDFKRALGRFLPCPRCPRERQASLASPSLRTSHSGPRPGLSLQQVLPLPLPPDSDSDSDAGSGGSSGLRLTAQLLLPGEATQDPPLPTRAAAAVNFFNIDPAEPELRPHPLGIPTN
Uncharacterized protein: Uncharacterized protein (Trypanosoma cruzi, UniProt Q4DRC3)
cathepsin L: cathepsin L (Capra hircus, UniProt A0A452FFI6)
DRD3: D(3) dopamine receptor (DRD3, Homo sapiens, UniProt P35462)
Sequence of UniProt P35462 (whole entry, looked up): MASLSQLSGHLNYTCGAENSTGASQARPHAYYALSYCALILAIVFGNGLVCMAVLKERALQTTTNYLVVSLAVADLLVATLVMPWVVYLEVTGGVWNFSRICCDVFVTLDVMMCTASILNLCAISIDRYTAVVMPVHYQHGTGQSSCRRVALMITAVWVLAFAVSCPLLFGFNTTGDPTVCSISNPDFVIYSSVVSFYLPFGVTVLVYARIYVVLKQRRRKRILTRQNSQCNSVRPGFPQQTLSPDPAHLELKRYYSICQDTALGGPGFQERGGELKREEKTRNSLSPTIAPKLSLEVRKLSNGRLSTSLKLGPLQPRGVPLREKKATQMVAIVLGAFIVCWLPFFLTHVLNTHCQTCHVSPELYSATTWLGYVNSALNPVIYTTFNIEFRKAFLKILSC
Sequence of UniProt O00519 (whole entry, looked up): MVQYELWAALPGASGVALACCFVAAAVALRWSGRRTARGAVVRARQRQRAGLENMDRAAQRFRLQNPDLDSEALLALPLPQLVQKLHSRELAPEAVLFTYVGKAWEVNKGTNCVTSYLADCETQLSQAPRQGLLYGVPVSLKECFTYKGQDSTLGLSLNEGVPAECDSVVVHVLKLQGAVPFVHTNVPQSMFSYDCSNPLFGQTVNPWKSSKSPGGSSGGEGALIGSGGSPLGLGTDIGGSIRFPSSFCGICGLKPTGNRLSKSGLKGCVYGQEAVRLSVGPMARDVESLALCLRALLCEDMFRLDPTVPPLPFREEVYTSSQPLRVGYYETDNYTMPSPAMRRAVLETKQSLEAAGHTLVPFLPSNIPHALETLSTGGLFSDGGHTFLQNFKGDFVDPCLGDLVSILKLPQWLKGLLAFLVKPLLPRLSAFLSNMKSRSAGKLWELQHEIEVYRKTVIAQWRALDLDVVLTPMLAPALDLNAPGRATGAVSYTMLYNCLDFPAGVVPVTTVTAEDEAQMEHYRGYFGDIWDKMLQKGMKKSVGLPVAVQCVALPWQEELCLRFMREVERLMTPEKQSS
Sequence of UniProt Q9Y345 (whole entry, looked up): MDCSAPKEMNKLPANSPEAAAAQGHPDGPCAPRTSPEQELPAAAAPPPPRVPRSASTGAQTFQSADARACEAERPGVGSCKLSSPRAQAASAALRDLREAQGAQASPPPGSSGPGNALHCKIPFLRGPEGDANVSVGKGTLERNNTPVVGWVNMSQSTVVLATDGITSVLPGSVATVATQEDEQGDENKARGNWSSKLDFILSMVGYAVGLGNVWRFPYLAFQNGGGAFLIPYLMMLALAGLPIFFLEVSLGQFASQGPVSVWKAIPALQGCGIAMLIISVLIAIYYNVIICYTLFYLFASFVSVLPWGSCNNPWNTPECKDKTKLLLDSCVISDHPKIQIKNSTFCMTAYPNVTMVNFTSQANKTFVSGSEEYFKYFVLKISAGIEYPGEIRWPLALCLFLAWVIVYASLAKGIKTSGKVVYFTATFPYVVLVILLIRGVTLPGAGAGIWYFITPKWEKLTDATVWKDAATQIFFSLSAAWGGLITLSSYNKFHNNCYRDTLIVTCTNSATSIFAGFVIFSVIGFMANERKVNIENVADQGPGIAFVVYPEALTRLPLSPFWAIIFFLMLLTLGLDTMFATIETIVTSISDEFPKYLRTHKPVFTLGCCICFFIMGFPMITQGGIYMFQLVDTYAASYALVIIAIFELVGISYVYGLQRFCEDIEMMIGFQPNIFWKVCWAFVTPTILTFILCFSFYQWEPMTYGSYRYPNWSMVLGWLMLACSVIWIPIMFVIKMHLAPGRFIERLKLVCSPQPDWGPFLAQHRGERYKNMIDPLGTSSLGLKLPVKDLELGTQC
Sequence of UniProt O35795 (whole entry, looked up): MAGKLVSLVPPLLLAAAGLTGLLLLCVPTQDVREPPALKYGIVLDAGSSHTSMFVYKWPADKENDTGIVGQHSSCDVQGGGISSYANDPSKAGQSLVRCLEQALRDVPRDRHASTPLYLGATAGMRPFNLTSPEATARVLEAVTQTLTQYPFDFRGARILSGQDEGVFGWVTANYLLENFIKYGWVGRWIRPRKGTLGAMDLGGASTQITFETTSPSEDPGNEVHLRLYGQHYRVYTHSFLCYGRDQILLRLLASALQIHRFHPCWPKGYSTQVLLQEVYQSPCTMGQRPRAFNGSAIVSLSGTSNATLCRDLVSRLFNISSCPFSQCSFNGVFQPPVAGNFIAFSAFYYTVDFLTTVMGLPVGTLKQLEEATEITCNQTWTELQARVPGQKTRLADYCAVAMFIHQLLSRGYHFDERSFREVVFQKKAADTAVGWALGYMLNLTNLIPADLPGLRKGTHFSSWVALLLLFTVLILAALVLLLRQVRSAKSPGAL
Sequence of UniProt P43235 (whole entry, looked up): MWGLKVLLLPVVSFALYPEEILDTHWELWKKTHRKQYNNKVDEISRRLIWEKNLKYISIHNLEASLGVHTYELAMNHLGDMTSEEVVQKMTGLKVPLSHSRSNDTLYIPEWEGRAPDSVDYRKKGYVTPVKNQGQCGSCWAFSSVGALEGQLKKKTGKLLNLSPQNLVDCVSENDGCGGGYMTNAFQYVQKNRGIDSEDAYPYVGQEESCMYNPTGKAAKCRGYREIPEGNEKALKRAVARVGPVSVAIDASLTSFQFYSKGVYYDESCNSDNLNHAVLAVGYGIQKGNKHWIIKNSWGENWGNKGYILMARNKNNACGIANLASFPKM
Sequence of UniProt P42685 (whole entry, looked up): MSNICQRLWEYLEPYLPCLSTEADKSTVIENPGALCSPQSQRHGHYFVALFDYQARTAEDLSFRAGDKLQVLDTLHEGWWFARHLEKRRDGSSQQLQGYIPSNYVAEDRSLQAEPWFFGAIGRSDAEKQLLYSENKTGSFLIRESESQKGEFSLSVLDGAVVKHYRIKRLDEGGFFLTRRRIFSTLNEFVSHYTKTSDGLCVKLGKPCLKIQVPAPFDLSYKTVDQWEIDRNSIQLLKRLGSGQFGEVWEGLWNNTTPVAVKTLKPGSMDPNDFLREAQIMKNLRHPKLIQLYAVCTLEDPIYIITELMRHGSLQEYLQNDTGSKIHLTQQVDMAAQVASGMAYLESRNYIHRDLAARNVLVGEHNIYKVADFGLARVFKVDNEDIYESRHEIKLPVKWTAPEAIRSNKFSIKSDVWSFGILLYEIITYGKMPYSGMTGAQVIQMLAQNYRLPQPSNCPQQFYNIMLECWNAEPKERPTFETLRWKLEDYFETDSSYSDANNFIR
Sequence of UniProt Q16819 (whole entry, looked up): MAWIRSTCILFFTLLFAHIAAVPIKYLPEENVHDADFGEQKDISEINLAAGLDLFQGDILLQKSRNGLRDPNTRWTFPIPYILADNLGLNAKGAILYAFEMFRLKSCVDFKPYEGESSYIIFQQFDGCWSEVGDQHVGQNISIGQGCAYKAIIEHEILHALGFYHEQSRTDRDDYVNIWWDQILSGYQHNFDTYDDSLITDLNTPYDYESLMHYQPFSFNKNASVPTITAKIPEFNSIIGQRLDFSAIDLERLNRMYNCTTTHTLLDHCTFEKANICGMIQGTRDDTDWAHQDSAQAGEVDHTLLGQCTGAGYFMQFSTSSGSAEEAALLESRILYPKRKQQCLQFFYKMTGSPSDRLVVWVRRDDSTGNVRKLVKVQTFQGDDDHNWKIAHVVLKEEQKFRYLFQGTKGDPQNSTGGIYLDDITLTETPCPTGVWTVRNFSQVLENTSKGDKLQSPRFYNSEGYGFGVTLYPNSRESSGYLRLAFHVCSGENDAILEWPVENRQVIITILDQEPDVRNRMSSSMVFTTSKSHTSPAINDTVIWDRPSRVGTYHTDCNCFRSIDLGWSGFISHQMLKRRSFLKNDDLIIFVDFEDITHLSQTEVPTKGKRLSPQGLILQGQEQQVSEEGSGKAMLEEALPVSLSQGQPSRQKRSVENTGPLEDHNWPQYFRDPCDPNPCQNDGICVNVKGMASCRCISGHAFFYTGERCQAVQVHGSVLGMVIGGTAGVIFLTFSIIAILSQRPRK

SMILES | target | test | system | setting | Ki [µM]
CCC(=O)NCc1cc(C(=O)NCCN2CCC(OC(=O)C(c3ccccc3)c3ccccc3)CC2)cc(C(=O)NCCN2CCN(CCCCC3CCN(CC(=O)N4c5ccccc5NC(=O)c5ccccc54)CC3)CC2)c1 | CHRM2 | ligand displacement, radioligand |  |  | 0.00115
Cc1ccccc1CO[C@@H](CO)[C@H](O)C[S@@+]1C[C@@H](O)[C@H](O)[C@H]1CO | GAA (Homo sapiens, UniProt P10253) | enzyme activity, inhibitor, absorbance |  | pH 5.2 | 0.034
COc1ccc(CCCN[C@H]2CCC[C@@H]2CN[C@@H]2CCC[C@H]2CNCCCCN[C@H]2CCC[C@@H]2CN)cc1 | KDM1A | enzyme activity, inhibitor |  |  | 3.3
CCCCCCSC[C@H]1CN(Cc2c[nH]c3c(N)ncnc23)C[C@@H]1O | MTA/SAH nucleosidase (Campylobacter jejuni subsp. jejuni, UniProt Z9IB28FKP7) | enzyme activity, inhibitor |  | slow-onset tight binding | 0.00065
COc1cc(-c2nc3ccc(C(=O)NCCCN(C)C)cc3n2C2CCC2)cc(OC)c1OC | LCK (Homo sapiens, UniProt P06239) | enzyme activity, inhibitor, FRET |  |  | 0.071
O=C1Nc2ccccc2N(C(=O)CN2CCC(CCCCN3CCN(CCCCOC(=O)C4c5ccccc5Oc5ccccc54)CC3)CC2)c2ccccc21 | CHRM2 | ligand displacement, radioligand |  |  | 0.00427
C#CCOC(=O)[C@@]1(C)C=C(C(=O)OC(C)(C)C)C(=O)CC1 | MAPK8 (Homo sapiens, UniProt P45983) | ligand displacement, FP |  |  | 17
CCC[C@@H]1[C@H](O)[C@@H](O)[C@H](O)[C@@H](CO)N1C(=S)NCc1ccc(OC)cc1 | beta-glucosidase (almond) | competitive inhibitor |  | together with: p-nitrophenyl glucopyranoside | > 2000
CN1CCN(Cc2ccc(OCCCN3CCN(c4cccc5sccc45)CC3)cc2)CC1 | HTR6 | ligand displacement, radioligand |  |  | 0.314
Nc1nc2c([C@@H]3N[C@H](COP(=O)(O)O)[C@@H](O)[C@H]3O)c[nH]c2c(=O)[nH]1 | Uncharacterized protein | IMP formation, uncompetitive inhibitor |  | pH 8.3, 37 °C, together with: hypoxanthine 120 µM, PRPP 1 mM | 36 ± 5
C#CC(C)NC(=O)C(CC(C)(C)F)NC(c1ccc(-c2ccc(S(C)(=O)=O)cc2)cc1)C(F)(F)F (centres unmarked) | Cathepsin K (CTSK, Homo sapiens, UniProt P43235) | enzyme activity, inhibitor, fluorescence |  |  | 3.3
O=C1Nc2ccccc2N(C(=O)CN2CCC(CCCCNCCCCC3CCN(CCCN4C(=O)CCc5ccccc54)CC3)CC2)c2ccccc21 | CHRM2 | ligand displacement, radioligand |  |  | 0.000575
CCCCCCCCN=C1SC[C@@H]2[C@@H](O)[C@H](O)[C@@H](O)[C@@H](CCCCCCCC)N12 | beta-glucosidase (almond) | competitive inhibitor |  | together with: p-nitrophenyl glucopyranoside | > 2000
N=C(NO)NCCC[C@H](N)C(=O)O | Arginase (Schistosoma mansoni, UniProt Q6WVP6) | enzyme activity, inhibitor, absorbance |  | pH 8.5 | 3.7
CCCN(CCC)CC1CCCCN1CCNC(=O)N1c2ccccc2NC(=O)c2cccnc21 (centres unmarked) | CHRM2 | ligand displacement, radioligand |  | cell membranes | 0.0195
COc1ccc(CCCNCCCNCCCNCCCCNCCCN)cc1 | KDM1A | enzyme activity, inhibitor, absorbance |  |  | 14

SMILES | target | test | system | setting | Ki [µM]
O=c1[nH]cnc2c([C@@H]3N[C@H](COP(=O)(O)O)[C@@H](O)[C@H]3O)c[nH]c12 | Uncharacterized protein | IMP formation, uncompetitive inhibitor |  | pH 8.3, 37 °C, together with: hypoxanthine 120 µM, PRPP 1 mM | 16 ± 1
CNc1ccccc1C(=O)O[C@H]1[C@@H](O)[C@H](n2ccc(N)nc2=O)O[C@@H]1COP(=O)(O)OP(=O)(O)O | Adcy2 (Rattus norvegicus, UniProt P26769) | adenylyl cyclase activity, inhibitor | Sf9 membranes | together with: 5 mM MnCl2, 100 µM forskolin | 3.7 ± 0.42
CNC(=O)C1CCN(c2cc(C)c(F)cc2NC(=O)c2ccc(-c3cc(O)ccc3C)c(C)c2)CC1 | FRK (Homo sapiens, UniProt P42685) | cell-free assay, TR-FRET |  |  | 0.0094
COc1ccccc1/C=C/C(=N/NC(N)=O)c1ccccc1 | cathepsin L | enzyme activity, competitive inhibitor | goat liver enzyme | pH 6.0, together with: Z-Phe-Arg-4-methoxy-β-naphthylamide | 0.00156 ± 2e-05
O=C(NC1CCN(Cc2ccccc2)CC1)c1ccc(OCc2ccccc2)cc1 | Sodium- and chloride-dependent glycine transporter 2 (Homo sapiens, UniProt Q9Y345) | cell-free assay, mass spectrometry |  |  | 0.214
N=C(N)NCC(=O)NCC1(Nc2ccccc2)CCCN(Cc2ccccc2)C1 (centres unmarked) | NPFFR1 (Homo sapiens, UniProt Q9GZQ6) | cell-free assay |  |  | 0.904
O=C(Cc1c(-c2ccccc2)n[nH]c1-c1ccccc1)NO | MEP1A (Homo sapiens, UniProt Q16819) | enzyme activity, inhibitor |  |  | 0.0013
CC(=O)NCC(=O)N[C@@H](CCC(=O)O)C(=O)N[C@@H](CO)C(=O)N1CCC[C@H]1C(=O)N[C@H](C=O)CC(=O)O | Caspase-9 (CASP9, Homo sapiens, UniProt P55211) | enzyme activity, inhibitor, fluorescence |  | pH 7 | 2.45
COc1ccc(/C=C/C(=N/NC(N)=O)c2ccccc2)cc1 | cathepsin L | enzyme activity, competitive inhibitor | goat liver enzyme | pH 6.0, together with: Z-Phe-Arg-4-methoxy-β-naphthylamide | 0.00266 ± 3e-05
CCn1c2ccccc2c2cc(CN[C@H]3CC[C@H](NC(=O)c4cc5ccccc5[nH]4)CC3)ccc21 | DRD3 | cell-free assay |  |  | 0.0521
Clc1cc(OCCCN2CCN(c3cccc4sccc34)CC2)ccc1CN1CCOCC1 | HTR6 | ligand displacement, radioligand |  |  | 0.356
CN(C)S(=O)(=O)c1ccc(S(=O)(=O)N2CCC(n3c(=O)[nH]c4ccccc43)CC2)cc1 | mfd, C-terminal domain (Escherichia coli, UniProt P30958) | ATPase activity |  |  | 27 ± 1.9
O=C(Nc1ccc(OC(F)(F)F)cc1)N1CCC(Cc2cccc(Oc3ccc(C(F)(F)F)cn3)c2)CC1 | FAAH (Homo sapiens, UniProt O00519) | enzyme activity, inhibitor |  |  | 0.077
Cc1nc(N=Nc2ccc(S(=O)(=O)O)cc2S(=O)(=O)O)c(COP(=O)(O)O)c(C=O)c1O | Ectonucleoside triphosphate diphosphohydrolase 2 (Rattus norvegicus, UniProt O35795) | enzyme activity, inhibitor |  | cell membranes | 44.2
CN(C)C1(CNC(=O)c2cnn(-c3ccc(Cl)cc3)c2)CCSC1 (centres unmarked) | DRD3 | ligand displacement, radioligand |  | cell membranes | > 10
CC1=CC[C@@H]2C[C@H]1C2(C)C | chemosensory protein 5 (Mythimna separata, UniProt A0A5H2NAD7) | binding, 1-NPN displacement |  | pH 5.0 | 3.94
